# Assay results of several laboratories.
# Lines come from different studies, so protocols differ. Several values in a cell are separate wells, animals, samples, runs or records.
# B1: ilvA 1-422 (Staphylococcus aureus, UniProt Q2FF63); sequence looked up; chain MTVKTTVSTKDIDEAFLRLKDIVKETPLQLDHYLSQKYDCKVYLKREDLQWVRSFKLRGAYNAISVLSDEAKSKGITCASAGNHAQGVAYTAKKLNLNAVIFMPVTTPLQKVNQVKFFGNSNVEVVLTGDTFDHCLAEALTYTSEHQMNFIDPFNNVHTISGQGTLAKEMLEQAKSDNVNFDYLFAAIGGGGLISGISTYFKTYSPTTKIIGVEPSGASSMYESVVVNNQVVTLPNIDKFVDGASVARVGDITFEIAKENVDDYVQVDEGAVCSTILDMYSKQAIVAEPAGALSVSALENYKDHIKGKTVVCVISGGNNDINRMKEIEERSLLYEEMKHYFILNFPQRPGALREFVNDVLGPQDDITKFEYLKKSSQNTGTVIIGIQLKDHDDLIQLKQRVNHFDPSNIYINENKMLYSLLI
# B2: YukB 1-973 (Bacillus subtilis, UniProt C0SPA7); sequence looked up; chain MSLLWVFYQNNVQKLNLSNLPSSHPVTIGPDVKDSVTISTIPFNSGVISLKRKESGGQYEVFLGNDCLGTIETDISFTLQTDQQDIRLILTGSEPEKSVYFTGNRDEIVCSSEKTNADIYLNPQDFAFAEQSTFSLLRAGGSWSVRPESGTIFLNGEKINANTPLKPGDEIFWNFTQMRVTEQDLLEIVHYAQFETALTETVKPSTEMQKKYPQYRRTPRMVYDLPDDRVSFSFPSQESDQTNRGLWLVILPPLVMLIVMGVVAIIQPRGIFILVSLAMFMMTLITSTVQYFRDKNQRKKREEKRERVYKLYLDNKRKELQALAEKQKQVLEFHFPSFEQMKYLTSEISDRIWEKSLESKDYLQLRLGTGTVPSSYEINMSGGDLANRDIDDLMEKSQHMQRVYKDIRNAPVTVDLAEGPMGLVGKSQIVKNEIHQLIGQLSFFNSYHDLRFVFIFHEEEYKDWEWMKWLPQFQMPHIYAKGFIYNEQTRDQLLSSLYELIRERDLEDDKEKLQFKPHFVFVITNQQLISEHVILEYLEGQHEHLGISTIVAAETKESLSENITTLVRYINEHEGDILIQKKKAVRIPFRLDHHQREDNERFSRTLRTLNHQVGITNSIPETVSFLELFHAKEVKEIGIQQRWLTSESSKSLSVPIGYKGKDDIVYLNLHEKAHGPHGLLAGTTGSGKSEFLQTYILSLAVHFHPHEAAFLLIDYKGGGMAQPFRNIPHLLGTITNIEGSKNFSMRALASIKSELKKRQRLFDQYQVNHINDYTKLYKQGKAEVAMPHLFLISDEFAELKSEEPDFIRELVSAARIGRSLGVHLILATQKPGGIIDDQIWSNSRFKVALKVQDATDSKEILKNSDAANITVTGRGYLQVGNNEVYELFQSAWSGAPYLEEVYGTEDEIAIVTDTGLIPLSEVDTEDNAKKDVQTEIEAVVDEIERIQDEMGIEKLPSPWLPPLAERIPRTLFP
# B3: ccpA 1-329 (Staphylococcus aureus, UniProt Q5HF38); chain MTVTIYDVAREARVSMATVSRVVNGNQNVKAETKNKVNEVIKRLNYRPNAVARGLASKKTTTVGVIIPDISNIYYSQLARGLEDIATMYKYHSIISNSDNDPEKEKEIFNNLLSKQVDGIIFLGGTITEEMKELINQSSVPVVVSGTNGKDAHIASVNIDFTEAAKEITGELIEKGAKSFALVGGEHSKKAQEDVLEGLTEVLNKNGLQLGDTLNCSGAESYKEGVKAFAKMKGNLPDAILCISDEEAIGIMHSAMDAGIKVPEELQIISFNNTRLVEMVRPQLSSVIQPLYDIGAVGMRLLTKYMNDEKIEEPNVVLPHRIEYRGTTK
# B4: gpM 1-109 (bacteriophage lambda, UniProt P03737); chain MKTFRWKVKPGMDVASVPSVRKVRFGDGYSQRAPAGLNANLKTYSVTLSVPREEATVLESFLEEHGGWKSFLWTPPYEWRQIKVTCAKWSSRVSMLRVEFSAEFEQVVN
# B5: ychJ (Salmonella enterica, UniProt A0A2X4TUW2); sequence looked up; chain MSQPCPCGSGDEYSLCCGRIVSGERVAPDPSHLMRSRYCAFVMKDADYLIKSWHPTCNAAAFRDDIIAGFANTKWLGLTIFEHNWSEAGNTGYVSFIARFSEQGKIGAIIERSRFIKENGQWYYIDGTRPQLGRNDPCPCGSGKKFKKCCGQ
# B6: tad1 (Metaclostridioides mangenotii, UniProt P0DW61); chain MEIKNGLCTQKYTKVYAEDKEKWKFNAPHHFIVGKADCEDEYIEPIEYVNFQEGPIKEYGINGVNNEDLILMVITRLQAFQDSPYKCRENAMAITKLQECLMWLGKRTLDREVKGIEGTSEI
# B7: Csm3 1-214 D32A (Enterococcus italicus, UniProt E6LHV5); chain MYSKIRIVGKIDVLTGLHIGGGGETSMIGAIASPVVRDPYSRLPIIPGSSIKGKMRSLLAKHIGLIPGQKMHNQDAPEILRLFGSSQKGAIQSSRLQISDAFFSKASQEEFDKKDLAYTETKFENTISRLTAVANPRQIERVTRGASFDFHIIYNVENINEVMADFENIKTAIHLLENDYLGGGGTRGNGRIRFVIDSIDTVVGDFDSSNLSIK
# B8: panD E97A (Mycobacterium abscessus, UniProt B1MGV7); chain MMFRTMMKSKIHRATVTHADLHYVGSVTIDPDLMEAADLLEGEQVTIVDIDNGARLETYAITGTRGSGVIGINGAAAHLVHPGDLVIIIAYGVMTDEAARAFTPRVVFVDSDNKQVELGEHSDDPAYVPENFGLVSPRGLV
# B9: Rep68 C151S (adeno-associated virus 2, UniProt P03132); chain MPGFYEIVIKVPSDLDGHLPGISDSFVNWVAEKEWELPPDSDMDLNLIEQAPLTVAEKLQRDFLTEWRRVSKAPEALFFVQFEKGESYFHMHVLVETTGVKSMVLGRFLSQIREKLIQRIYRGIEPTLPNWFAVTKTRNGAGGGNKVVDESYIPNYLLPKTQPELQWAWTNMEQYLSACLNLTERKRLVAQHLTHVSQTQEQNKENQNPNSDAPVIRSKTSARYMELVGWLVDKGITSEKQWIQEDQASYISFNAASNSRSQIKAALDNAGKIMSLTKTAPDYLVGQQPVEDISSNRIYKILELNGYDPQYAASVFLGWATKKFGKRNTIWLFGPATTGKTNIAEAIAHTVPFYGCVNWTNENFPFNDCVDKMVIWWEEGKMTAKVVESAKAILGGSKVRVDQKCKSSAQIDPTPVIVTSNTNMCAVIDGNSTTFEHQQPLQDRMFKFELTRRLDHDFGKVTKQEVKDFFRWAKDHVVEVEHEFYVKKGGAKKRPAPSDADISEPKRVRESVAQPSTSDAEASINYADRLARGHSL
# B10: protein 1-735 R432A (UniProt C7Z7K1); chain MSNLKDFSQPGSGQESNFGVDFVIHYKVPAAERDEAEAGFVQLIRALTTVGLATEVRHGENESLLVFVKVASPDLFAKQVYRARLGDWLHGVRVSAPHNDIAQALQDEPVVEAERLRLIYLMITKPHNEGGAGVTPTNAKWKHVESIFPLHSHSFNKEWIKKWSSKYTLEQTDIDNIRDKFGESVAFYFAFLRSYFRFLVIPSAFGFGAWLLLGQFSYLYALLCGLWSVVFFEYWKKQEVDLAVQWGVRGVSSIQQSRPEFEWEHEAEDPITGEPVKVYPPMKRVKTQLLQIPFALACVVALGALIVTCNSLEVFINEVYSGPGKQYLGFLPTIFLVIGTPTISGVLMGAAEKLNAMENYATVDAHDAALIQKQFVLNFMTSYMALFFTAFVYIPFGHILHPFLNFWRATAQTLTFSEKELPTREFQINPAAISNQMFYFTVTAQIVNFATEVVVPYIKQQAFQKAKQLKSGSKVQEDHEEEAEFLQRVREECTLEEYDVSGDYREMVMQFGYVAMFSVAWPLAACCFLVNNWVELRSDALKIAISSRRPIPWRTDSIGPWLTALSFLSWLGSITSSAIVYLCSNSKNGTQGEASPLKAWGLLLSILFAEHFYLVVQLAVRFVLSKLDSPGLQKERKERFQTKKRLLQENLGQDAAEEAAAPGIEHSEKITREALEEEARQASIRGHGTPEEMFWQRQRGMQETIEIGRRMIEQQLAAGKNGKKSAPAVPSEKAS
# B11: P116 ectodomain 30-957 (Mycoplasma pneumoniae, UniProt P75556); sequence looked up; chain NKTHQVEHESEQSDFQDIRFGLNSVKLPKAQPAAATRITVENGTDKLVNYKSSPQQLFLAKNALKDKLQGEFDKFLSDAKAFPALTADLQEWVDQQLFNPNQSFFDLSAPRSNFTLSSDKKASLDFIFRFTNFTESVQLLKLPEGVSVVVDSKQSFDYYVNASAQKLLVLPLSLPDYTLGLNYMFDHITLNGKVVNKFSFNPFKTNLNLAFSNVYNGVDVFEAQKNLVGKGKYLNTHVKAEDVKKDVNANIKNQFDIAKIIAELMGKALKEFGNQQEGQPLSFLKVMDKVKEDFEKLFNLVRPGLGKFVKDLIQSSSQAENKITVYKLIFDNKKTILNLLKELSIPELNSSLGLVDVLFDGITDSDGLYERLQSFKDLIVPAVKTNEKTAALSPLIEELLTQKDTYVFDLIQKHKGILTNLLKNFLADFQKSTPFMADQVAIFTELFDNEGAFDLFGEADFVDKIAELFLTKRTVKNGEKIETKDSLLVTSLKSLLGEKVAALGDLLDSYIFKNELLNRSVEVAKAEAKDTKGATDYKKEQAKALKKLFKHIGENTLSKTNLDKITLKEVKNTENVELEETETTLKVKKLDVEYKVELGNFEIKNGLIKAMLEFLPDTKDLETTLDKLLFKGESYKAMKDKYIKEGFPGYGWAKGVVPGAFESIENTFKSAIDKTKSIRDLFGDMLFGNDLSSVKETDSFITLGGSFDIKYGGENLNVLPAYYSLINSEIGYQIIGVDTTIDATKVKVELKNKEYKGKSPAINGQVKLSQSFFNVWTNMFDSITKQIFQKKYEFKDNIQVFARNEDNTSRLELDISDPEQRVIPFAFVDGFGIQLKAVDKNITKEAGNTEPKSPVIQLYEALNKEKDQKQQSKQSPKQLDTKTQLGYLLKLGDNWSKDDYKSLIDDTIINNNYLEASFNSKITVDRLG
# B12: pyrE E19A/R53A/R56A (Burkholderia cenocepacia, UniProt B4E589); chain MTGYDRQSISDTTAKILLAVQAVHFNAEKPFIFTSGWASPVYIDCRKLISYPAVRAALMEMAETTITRDIGFEQIDAVAGGETAGIPFAAWIADRMMVPMQYVRKKPKGFGRNAQIEGHLEEGSRVLLVEDLTTDSRSKINFVNALRTAGATVNHCFVLFHYNIFKESVSVLKDIDVDLHALATWWDVLRVAKASGYFETKTLDEVEKFLHAPAEWSAAHGGATAPKE
Molecule,tested on,test,test system,conditions,scale,measurement,result
B1 (ilvA 1-422),itself,SEC-MALS,,,,subunits per oligomer,6
B2 (YukB 1-973),itself,cryo-EM,,,,subunits per oligomer,< 3
B3 (ccpA 1-329),itself,SEC,,pH 7.4,,subunits per oligomer,2
B4 (gpM 1-109),itself,cryo-EM,,,,subunits per oligomer,6
B5 (ychJ),itself,cross-linking,,together with: H2O2,,subunits per oligomer,2
B6 (tad1),itself,X-ray crystallography,,,,subunits per oligomer,6
B7 (Csm3 1-214 D32A),itself,cryo-EM,,,,subunits per oligomer,3 and 4
"sduA (Bacillus cereus, UniProt B7HFR2)",itself,SEC-MALS,,,,subunits per oligomer,4
B8 (panD E97A),itself,native gel,,,,subunits per oligomer,4
B9 (Rep68 C151S),itself,"averages, 2D class, cryo-EM",,,,subunits per oligomer,7
B10 (protein 1-735 R432A),itself,cryo-EM,,,,subunits per oligomer,2
B11 (P116 ectodomain 30-957),itself,2D classification cryo-EM,,,,subunits per oligomer,2
insulin human,,measured: EPHA5 mRNA,"uninfected mouse, brain","i.p., dose not given",reference: PBS,fold change,1.16
B12 (pyrE E19A/R53A/R56A),itself,SEC,,,,subunits per oligomer,2
